Results gathered from unrelated publications.
Each line is one published result; not all experiments were run side by side. ± marks the error that the study gave.

Structure (SMILES)	test	test system	conditions	endpoint	result
CCCC[C@H](NC(=O)COCCOCCNC(=O)CN1CCN(CC(=O)O)CCN(CC(=O)O)CC1)C(=O)N[C@H]1CC(=O)NCCCC[C@@H](C(N)=O)NC(=O)[C@H](Cc2c[nH]c3ccccc23)NC(=O)[C@H](CCCNC(=N)N)NC(=O)[C@@H](Cc2ccccc2)NC(=O)[C@H](Cc2c[nH]cn2)NC1=O [copper-64 labelled]	–	C57 mice, pancreas	intravenous, 0.37 MBq, 2 h	tissue uptake	0.21 ± 0.13 %ID/g
CC(C)C[C@H](NC(=O)[C@@H](CCCCNC(=O)CCCCCNC(=O)CN1CCN(CC(=O)O)CCN(CC(=O)O)CCN(CC(=O)O)CC1)NC(=O)[C@H](Cc1ccc(O)cc1)NC(=O)[C@H](CO)NC(=O)[C@H](Cc1c[nH]c2ccccc12)NC(=O)[C@H](Cc1cnc[nH]1)NC(=O)[C@@H]1CCC(=O)N1)C(=O)N[C@@H](CCCNC(=N)N)C(=O)N1CCC[C@H]1C(=O)NCC(N)=O [indium-111 labelled]	–	female athymic nude mouse, pancreas	intravenous, 0.037 MBq, 2 h	tissue uptake	0.15 ± 0.02 %ID/g
N=C(N)NCCC[C@@H]1NC(=O)[C@H](CCCCNC(=O)CCOCCOCCOCCOCCNC(=O)CC[C@H](NC(=O)CCOCCOCCOCCOCCNC(=O)CN2CCN(CC(=O)O)CCN(CC(=O)O)CCN(CC(=O)O)CC2)C(=O)NCCOCCOCCOCCOCCC(=O)NCCCC[C@@H]2NC(=O)[C@@H](Cc3ccccc3)NC(=O)[C@H](CC(=O)O)NC(=O)CNC(=O)[C@H](CCCNC(=N)N)NC2=O)NC(=O)[C@@H](Cc2ccccc2)NC(=O)[C@H](CC(=O)O)NC(=O)CNC1=O [indium-111 labelled]	–	octanol/water	–	log P	-4.2 ± 0.21
CC(C)C[C@H](NC(=O)[C@H](Cc1ccc(O)cc1)NC(=O)[C@@H](CCCNC(=N)N)NC(=O)[C@@H](CO)NC(=O)[C@H](Cc1ccccc1)NC(=O)[C@H](CC1CCCCC1)NC(=O)[C@H](CC(=O)O)NC(=O)CN1CCCN2CCN(CCCN(CC(=O)O)CC2)CC1)C(=O)N[C@@H](Cc1c[nH]c2ccccc12)C(=O)N[C@@H](CO)C(=O)O [copper-64 labelled]	–	female NMRI nude mice, intestine	22 h p.i.	tissue uptake	2.1 ± 0.4 %ID/g
CCCC[C@H](NC(=O)CCCCCCCNC(=O)CN1CCN(CC(=O)O)CCN(CC(=O)O)CC1)C(=O)N[C@H]1CC(=O)NCCCC[C@@H](C(N)=O)NC(=O)[C@H](Cc2c[nH]c3ccccc23)NC(=O)[C@H](CCCNC(=N)N)NC(=O)[C@@H](Cc2ccccc2)NC(=O)[C@H](Cc2c[nH]cn2)NC1=O [copper-64 labelled]	–	C57 mice, kidney	intravenous, 0.37 MBq, 24 h	tissue uptake	0.83 ± 0.11 %ID/g
CC1(C)C(=CC=C2CCCC(C=CC3=[N+](CCCCS(=O)(=O)[O-])c4ccc(S(=O)(=O)O)cc4C3(C)C)=C2Oc2ccc(S(=O)(=O)O)cc2)N(CCCCCC(=O)NCCCC[C@H](NC(=O)[C@@H](CCC(=O)O)NC(=O)[C@@H](CCC(=O)O)NC(=O)[C@@H](CCC(=O)O)NC(=O)CCCCCNC(=O)C2CCC(CNC(=O)CC[C@H](NC(=O)N[C@@H](CCC(=O)O)C(=O)O)C(=O)O)CC2)C(N)=O)c2ccc(S(=O)(=O)O)cc21 (stereo partly shown)	reversed-phase HPLC, C18	–	5-55% acetonitrile over 30 min	HPLC retention time	23.4 min
N=C(N)NCCC[C@@H]1NC(=O)[C@H](CCCCNC(=O)CNC(=O)CNC(=O)CNC(=O)CC[C@H](NC(=O)CNC(=O)CNC(=O)CNC(=O)CN2CCN(CC(=O)O)CCN(CC(=O)O)CCN(CC(=O)O)CC2)C(=O)NCC(=O)NCC(=O)NCC(=O)NCCCC[C@@H]2NC(=O)[C@@H](Cc3ccccc3)NC(=O)[C@H](CC(=O)O)NC(=O)CNC(=O)[C@H](CCCNC(=N)N)NC2=O)NC(=O)[C@@H](Cc2ccccc2)NC(=O)[C@H](CC(=O)O)NC(=O)CNC1=O [indium-111 labelled]	–	female athymic nu/nu mice, blood	intravenous, 1 h	tissue uptake	0.3 ± 0.07 %ID/g
CCCC[C@H](NC(=O)CNC(=O)CNC(=O)CN1CCN(CC(=O)O)CCN(CC(=O)O)CC1)C(=O)N[C@H]1CC(=O)NCCCC[C@@H](C(N)=O)NC(=O)[C@H](Cc2c[nH]c3ccccc23)NC(=O)[C@H](CCCNC(=N)N)NC(=O)[C@@H](Cc2ccccc2)NC(=O)[C@H](Cc2c[nH]cn2)NC1=O [technetium-99m labelled]	–	C57 mouse, kidney	iv, 0.037 MBq, 24 h	tissue uptake	0.23 ± 0.19 %ID/g
CCCC[C@H](NC(=O)CNC(=O)CNC(=O)CN1CCN(CC(=O)O)CCN(CC(=O)O)CCN(CC(=O)O)CC1)C(=O)N[C@H]1CC(=O)NCCCC[C@@H](C(N)=O)NC(=O)[C@H](Cc2c[nH]c3ccccc23)NC(=O)[C@H](CCCNC(=N)N)NC(=O)[C@@H](Cc2ccccc2)NC(=O)[C@H](Cc2c[nH]cn2)NC1=O [lutetium-177 labelled]	–	C57 mouse, female, skin	intravenous, 0.037 MBq, 0.5 h	tissue uptake	3.28 ± 0.5 %ID/g
N=C(N)NCCC[C@@H]1NC(=O)[C@H](CCCCNC(=O)CC[C@H](NC(=O)CC[C@H](NC(=O)CN2CCN(CC(=O)O)CCN(CC(=O)O)CCN(CC(=O)O)CC2)C(=O)N[C@@H](CCC(=O)NCCCC[C@@H]2NC(=O)[C@@H](Cc3ccccc3)NC(=O)[C@H](CC(=O)O)NC(=O)CNC(=O)[C@H](CCCNC(=N)N)NC2=O)C(=O)NCCCC[C@@H]2NC(=O)[C@@H](Cc3ccccc3)NC(=O)[C@H](CC(=O)O)NC(=O)CNC(=O)[C@H](CCCNC(=N)N)NC2=O)C(=O)NCCCC[C@@H]2NC(=O)[C@@H](Cc3ccccc3)NC(=O)[C@H](CC(=O)O)NC(=O)CNC(=O)[C@H](CCCNC(=N)N)NC2=O)NC(=O)[C@@H](Cc2ccccc2)NC(=O)[C@H](CC(=O)O)NC(=O)CNC1=O [indium-111 labelled]	–	female athymic nu/nu mice, blood	intravenous, 1 h	tissue uptake	0.37 ± 0.08 %ID/g

Some of these lines once more:
Structure (SMILES)	test	test system	conditions	endpoint	result
N=C(N)NCCC[C@@H]1NC(=O)[C@H](CCCCNC(=O)CC[C@H](NC(=O)CC[C@H](NC(=O)CN2CCN(CC(=O)O)CCN(CC(=O)O)CCN(CC(=O)O)CC2)C(=O)N[C@@H](CCC(=O)NCCCC[C@@H]2NC(=O)[C@@H](Cc3ccccc3)NC(=O)[C@H](CC(=O)O)NC(=O)CNC(=O)[C@H](CCCNC(=N)N)NC2=O)C(=O)NCCCC[C@@H]2NC(=O)[C@@H](Cc3ccccc3)NC(=O)[C@H](CC(=O)O)NC(=O)CNC(=O)[C@H](CCCNC(=N)N)NC2=O)C(=O)NCCCC[C@@H]2NC(=O)[C@@H](Cc3ccccc3)NC(=O)[C@H](CC(=O)O)NC(=O)CNC(=O)[C@H](CCCNC(=N)N)NC2=O)NC(=O)[C@@H](Cc2ccccc2)NC(=O)[C@H](CC(=O)O)NC(=O)CNC1=O [indium-111 labelled]	–	female athymic nu/nu mice, blood	intravenous, 1 h	tissue uptake	0.37 ± 0.08 %ID/g
